Measurements of several laboratories.
Lines come from different studies, so protocols differ. Values joined by “and” are separate records of one study, mostly repeats; a detail may differ. Numbers after ± are the reported error.
STING1 H232R: Stimulator of interferon genes protein (STING1, Homo sapiens, UniProt Q86WV6, H232R)
MAPK8: Mitogen-activated protein kinase 8 (MAPK8, Homo sapiens, UniProt P45983)

With `CC(/C=C/C(=O)NO)=C\[C@@H](C)C(=O)c1ccc(N(C)C)cc1` the TΔS was 7 kcal/mol (HDAC8 (Homo sapiens, UniProt Q9BY41); ITC; phosphate buffer; pH 7.5).
With `COC(=O)[C@@]1(C)C=C(C(=O)Nc2cccc(C(=O)Nc3ccc(Nc4nccc(-c5cccnc5)n4)c(C)c3)c2)C(=O)CC1` the remaining activity was 0.125 (MAPK14 (Homo sapiens, UniProt Q16539); kinase activity, inhibitor; 400 µM, unit not given; baseline: no inhibitor).
With `CN(C(=O)[C@@H]1CSCC(=O)N[C@@H](Cc2ccccc2)C(=O)N[C@@H](CO)C(=O)N[C@@H](Cc2ccccc2)C(=O)N[C@@H](Cc2ccc(O)cc2)C(=O)N[C@@H](Cc2ccc(O)cc2)C(=O)N[C@@H](Cc2c[nH]cn2)C(=O)N[C@@H](Cc2c[nH]c3ccccc23)C(=O)N1)[C@@H](Cc1ccccc1)C(N)=O` the ΔTm was 8.66 °C (STING1 H232R; thermal stability, DSF; 50 µM).
The inhibition of `C[Si](C)(C)C[C@H](CN)CC(=O)O` is reported as 3% (BDKRB1 (Homo sapiens, UniProt P46663); ligand displacement, radioligand; 250 µM).
For `CC(C)C[C@@H]1NC(=O)[C@H](Cc2ccccc2)NC(=O)CSC[C@@H](C(=O)NCC(N)=O)NC(=O)[C@H](Cc2ccc(O)cc2)NC(=O)[C@H](C(C)C)NC(=O)[C@H](Cc2ccccc2)NC(=O)[C@H](Cc2ccc(O)cc2)NC(=O)[C@H](Cc2ccccc2)NC(=O)[C@H](CC(=O)O)NC(=O)[C@H](CC(N)=O)NC(=O)[C@H](CC(N)=O)NC(=O)[C@H](Cc2ccc(O)cc2)NC(=O)[C@H](C(C)C)NC(=O)[C@H](Cc2ccccc2)NC1=O`, the ΔTm was 0.56 °C (STING1 H232R; thermal stability, DSF; 50 µM).
`CCCc1ccc(C(=O)N2c3ccc(F)cc3[C@@H](Nc3ccccc3)C[C@H]2C)cc1` gave a pIC50 Z-score of 0.66 (Ecdysone receptor (Aedes albopictus, UniProt Q9U3Y4); ligand binding, inhibitor; intact cells; added: [3H]ponasterone A; direction not given).
Under “activity vs control”, `CC(C)(C)OC(=O)N1CCN(CC(OCc2ccc(Br)cc2)c2ccc(Cl)cc2Cl)CC1` (centres unmarked) is recorded as 135% (ULK1 (Homo sapiens, UniProt O75385); enzyme activity, inhibitor, ADP detection; 0.1 µM).
The remaining binding of `Cc1cnc2nc1Nc1cccc(c1)COC/C=C/COCc1cc(ccc1OCCN1CCOCC1)N2` is reported as 99% (ABL1 (Homo sapiens, UniProt P00519, F317I); binding; 0.1 µM).
`CCCCCC(O)/C=C/C=O` (centres unmarked) gave an isoTOP-ABPP ratio of 15 (Plexin-B2 (PLXNB2, Homo sapiens, UniProt O15031); IA-probe cysteine labelling, covalent modifier, competitive isoTOP-ABPP; Ramos proteome; 100 µM, in vitro; baseline: DMSO over compound, higher = stronger blockade).
The fibril diameter of `CCCCCCCCCCCCCCCC(=O)OCC(CSC[C@H](N)C(=O)N[C@@H](CO)C(=O)N[C@@H](CCCCN)C(=O)N[C@@H](CCCCN)C(=O)N[C@@H](CCCCN)C(=O)N[C@@H](CCCCN)C(=O)NCCCCCC(=O)N[C@@H](CCCCN)C(=O)N[C@@H](CC(C)C)C(=O)N[C@H](C(=O)N[C@@H](Cc1ccccc1)C(=O)N[C@@H](Cc1ccccc1)C(=O)N[C@@H](Cc1ccc2ccccc2c1)C(=O)O)C(C)C)OC(=O)CCCCCCCCCCCCCCC` (some centres unmarked) is reported as 32.5 nm (Amyloid-beta precursor protein, fibrillar amyloid-beta (APP, Homo sapiens, UniProt P05067); TEM; 2.0 eq, 8 h, fibril 3, added: APP 20 µM).
`CC(C=CC=C(C)C=CC1=C(C)CCCC1(C)C)=CC=O` — result for “plasma membrane localization”: 0.78 (Rhodopsin (RHO, Homo sapiens, UniProt P08100, T17M); immunostaining, measured: opsin; COS-7 transfected; 20.00 µM, unit not given; baseline: surface over total stained cells).
`CCCCCCCCCCCCC/C=C/C=O` — result for “isoTOP-ABPP competition ratio”: 1 (Ribonucleoside-diphosphate reductase large subunit (Homo sapiens, UniProt P23921); competitive isoTOP-ABPP, measured: RRM1 cysteine peptide; Ramos soluble proteome; 100 µM, added: iodoacetamide probe; baseline: DMSO over compound-treated, higher = stronger cysteine blockade).
With `Cn1c(=O)n(C2CCC(=O)NC2=O)c2ccc(C3CCN(CC(=O)Nc4cccc(CS(=O)(=O)N5CC[C@H](Nc6cccc(-c7sc(C(=O)O)c(OCC(=O)O)c7Cl)c6)CC5(C)C)c4)CC3)cc21` (some centres unmarked) the remaining protein was 1.6% and 1.8% (Tyrosine-protein phosphatase non-receptor type 1 (Mus musculus, UniProt P35821); degrader, Western blot; B16-F10; 1 µM).
`CC(C)(C)OC(=O)C1=C[C@@](C)(C(=O)OCC#Cc2ccncc2)CCC1=O` has a fraction bound of 0.255 (MAPK8; D-peptide binding, inhibitor, FP peptide displacement; 50 µM; lower is stronger displacement).
For `O=[N+]([O-])c1cc(Br)cc([N+](=O)[O-])c1NS(=O)(=O)c1ccc(Br)cc1`, “HAB1 phosphatase activity” read 0.082 a.u. and 0.08 a.u. and 0.088 a.u. (PYL10, with HAB1 (Arabidopsis thaliana, UniProt Q8H1R0); antagonist; 10 µM, added: ABA 5 µM; higher = more HAB1 activity).
`Cc1cc(Cl)cc(-c2ccnc3cc(CN4C(=O)C5C(C4=O)C5(C)C)sc23)c1C[C@@H]1CNCCO1` (some centres unmarked) has an IC50 ratio of 2250 (USP7 (Homo sapiens, UniProt Q93009, V517F); enzyme activity, inhibitor, Ub-AMC; baseline: V517F over wild type).
`O=C1c2sc(-c3ccc(N4CCC(F)C4)nc3F)nc2CCN1c1cccnc1` (centres unmarked) gave an inhibition of -22% (PTGFR (Homo sapiens, UniProt P43088); ligand displacement, radioligand; 1 µM).
`C#CCOC(=O)[C@@]1(C)C=C(C(=O)OC(C)(C)C)C(=O)CC1` has a fraction bound of 0.913 (MAPK8; D-peptide binding, inhibitor, FP peptide displacement; 6.25 µM; lower is stronger displacement).
With `CC1(F)CN(C(=O)Cn2c(=O)c(C(=O)NCc3ccc(Cl)cc3)cc3nc(N4CCN(CCN)C4=O)cnc32)C1` the Hill slope was 0.74 (DNA polymerase catalytic subunit (Human cytomegalovirus, UniProt P08546); enzyme activity, inhibitor).
`OC[C@H]1O[C@@H](Oc2ccccc2-c2ccccc2)[C@H](O)[C@@H](O)[C@H]1O` has an inhibition (PI10) of 31 ± 2.1% (Adhesin FmlH, lectin domain (Escherichia coli, UniProt Q1RBS0); binding to desialylated BSM, competition ELISA; UPEC UTI89; 10 µM).
`CCCCCC=CC=C1C(=O)C=CC1CC=CCCCC(=O)O` (centres unmarked) — result for “isoTOP-ABPP competition ratio”: 2.6 (Elongation factor 2 (EEF2, Homo sapiens, UniProt P13639); competitive isoTOP-ABPP; proteome, soluble, MDA-MB-231; 100 µM, added: iodoacetamide probe; baseline: DMSO over compound-treated, higher = stronger cysteine blockade).
The selectivity ratio of `CCC1(CC)C(=O)N(c2ccc(CC(=O)O)cc2)C1=O.O=C(O)C(F)(F)F` is reported as 2 (Dipeptidyl peptidase 8 (Homo sapiens, UniProt Q6V1X1); inhibitor; added: GP-AMC substrate; baseline: Ki' DPP9 over Ki' DPP8).
`CN(C)c1ccc(-n2cc(COC(=O)[C@@]3(C)C=C(C(=O)OC(C)(C)C)C(=O)CC3)nn2)cc1` gave a fraction bound of 0.943 (MAPK8; D-peptide binding, inhibitor, FP peptide displacement; 3.125 µM; lower is stronger displacement).
`Cc1cc(C(=O)Nc2nc3cccc(C)c3n2[C@H]2CCCCN(C(=O)/C=C/CN(C)C)C2)ccn1` has a kinase activity of 24.8% (CDC2-like kinase 1 (Trypanosoma brucei brucei, UniProt Q382U0); ADP-Glo; 0.3125 µM).
With `Cc1cn(CC(=O)N(CC(=O)N[C@H]2CCC[C@@H]2N(CC(=O)N[C@H]2COC[C@@H]2N(CC(=O)N[C@H]2COC[C@@H]2N(CC(=O)N[C@H]2COC[C@@H]2N(CC(=O)NCCOCCOCC(N)=O)C(=O)Cn2cnc3c(N)ncnc32)C(=O)Cn2cc(C)c(=O)[nH]c2=O)C(=O)Cn2cnc3c(N)ncnc32)C(=O)Cn2cnc3c(=O)[nH]c(N)nc32)[C@H]2CCC[C@@H]2NC(=O)CN(C(=O)Cn2cnc3c(=O)[nH]c(N)nc32)[C@H]2CCC[C@@H]2NC(=O)CN(C(=O)Cn2cc(C)c(=O)[nH]c2=O)[C@H]2COC[C@@H]2NC(=O)CN(C(=O)Cn2cnc3c(N)ncnc32)[C@H]2COC[C@@H]2NC(=O)CN(C(=O)Cn2cnc3c(=O)[nH]c(N)nc32)[C@H]2COC[C@@H]2N)c(=O)[nH]c1=O` the Tm was 78 ± 0.3 °C (complementary RNA; duplex formation, UV melting curve fit; PBS; 1 µM, fit parameter α 0.5).
For `C=CC(=O)N1CCCC(n2c(=O)c3ncccc3n(Cc3ccc(Oc4ccccc4)cc3)c2=O)C1` (centres unmarked), the melting temperature was 51.3 °C and 42 °C (Protein phosphatase 1G (Homo sapiens, UniProt O15355); thermal proteome profiling, measured: PPM1G; treated).
For `O=C(NC[C@@H](Cc1ccc(F)cc1)N1CCC(O)(C(F)(F)F)CC1)C1(c2ccc(Cl)cc2)CCCC1`, activity read “inactive” (TRPA1 (Homo sapiens, UniProt O75762, F909A); concentration not given).
With `COc1ccc(C(=O)c2c(C(=O)NCCCN(C)C)oc3ccc(Cl)cc3c2=O)cc1OC` the Emax was 97.6 ± 9.5% (GHSR (Homo sapiens, UniProt Q92847, R199A); Gαq dissociation, TRUPATH BRET; HEK293T).
The remaining binding of `Cn1cc(-c2cc(N3CCCCS3(=O)=O)ccc2N[C@H]2CC[C@H](C)CC2)c2cc[nH]c2c1=O` (stereo in doubt) is reported as 0.75% (Bromodomain-containing protein 3, BD1 (BRD3, Homo sapiens, UniProt Q15059); binding, competition with immobilised ligand; 1 µM).

Some of these lines once more:
The fibril diameter of `CCCCCCCCCCCCCCCC(=O)OCC(CSC[C@H](N)C(=O)N[C@@H](CO)C(=O)N[C@@H](CCCCN)C(=O)N[C@@H](CCCCN)C(=O)N[C@@H](CCCCN)C(=O)N[C@@H](CCCCN)C(=O)NCCCCCC(=O)N[C@@H](CCCCN)C(=O)N[C@@H](CC(C)C)C(=O)N[C@H](C(=O)N[C@@H](Cc1ccccc1)C(=O)N[C@@H](Cc1ccccc1)C(=O)N[C@@H](Cc1ccc2ccccc2c1)C(=O)O)C(C)C)OC(=O)CCCCCCCCCCCCCCC` (some centres unmarked) is reported as 32.5 nm (Amyloid-beta precursor protein, fibrillar amyloid-beta (APP, Homo sapiens, UniProt P05067); TEM; 2.0 eq, 8 h, fibril 3, added: APP 20 µM).
The selectivity ratio of `CCC1(CC)C(=O)N(c2ccc(CC(=O)O)cc2)C1=O.O=C(O)C(F)(F)F` is reported as 2 (Dipeptidyl peptidase 8 (Homo sapiens, UniProt Q6V1X1); inhibitor; added: GP-AMC substrate; baseline: Ki' DPP9 over Ki' DPP8).
Under “activity vs control”, `CC(C)(C)OC(=O)N1CCN(CC(OCc2ccc(Br)cc2)c2ccc(Cl)cc2Cl)CC1` (centres unmarked) is recorded as 135% (ULK1 (Homo sapiens, UniProt O75385); enzyme activity, inhibitor, ADP detection; 0.1 µM).
